{"data": "Assay results pooled from the literature", "note": "Each numbered part is a random draw from the data of one study; scales do not carry over between parts. Changes are numbered by the printed parent chain."}
{"data": "Sample 1", "target": "ABI1, truncated, D143A, DHFR fusion (Arabidopsis thaliana)", "technique": "DHFR PCA, deep sequencing", "sample": "yeast", "notes": "methotrexate growth selection, single substitutions", "together with": "(+)-ABA 0.0091 µM", "relative to": "wild-type fitted maximum", "direction": "higher = stronger binding", "starting sequence": "PYL1, truncated, DHFR fusion (Arabidopsis thaliana); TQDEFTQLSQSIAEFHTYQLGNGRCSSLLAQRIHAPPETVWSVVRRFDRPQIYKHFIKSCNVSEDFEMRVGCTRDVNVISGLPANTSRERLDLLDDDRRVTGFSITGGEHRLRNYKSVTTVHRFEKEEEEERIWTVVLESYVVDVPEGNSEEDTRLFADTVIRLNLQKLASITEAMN; partner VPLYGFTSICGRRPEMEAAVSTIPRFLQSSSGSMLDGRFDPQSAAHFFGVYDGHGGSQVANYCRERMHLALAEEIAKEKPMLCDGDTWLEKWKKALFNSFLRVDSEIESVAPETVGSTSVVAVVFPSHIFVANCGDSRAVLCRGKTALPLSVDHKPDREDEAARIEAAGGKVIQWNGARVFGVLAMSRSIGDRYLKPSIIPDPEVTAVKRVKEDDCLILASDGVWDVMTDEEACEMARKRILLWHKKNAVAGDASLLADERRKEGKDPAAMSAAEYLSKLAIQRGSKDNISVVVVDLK"}
{"Variant": "G81A", "relative binding score [%]": 11.5}
{"Variant": "G107D", "relative binding score [%]": 36.6}
{"Variant": "D153K", "relative binding score [%]": -4.17}
{"Variant": "R88P", "relative binding score [%]": -4.69}
{"Variant": "D144Q", "relative binding score [%]": -7.11}
{"Variant": "I57G", "relative binding score [%]": -2.16}
{"Variant": "L166Q", "relative binding score [%]": -2.68}
{"Variant": "H110D", "relative binding score [%]": 49.6}
{"Variant": "T86A", "relative binding score [%]": 6.86}
{"Variant": "A13S", "relative binding score [%]": 23}
{"Variant": "W41F", "relative binding score [%]": -5.11}
{"Variant": "S140K", "relative binding score [%]": -5.44}
{"Variant": "N22E", "relative binding score [%]": 52.7}
{"Variant": "A30Y", "relative binding score [%]": 10.6}
{"Variant": "C72G", "relative binding score [%]": -1.72}
{"Variant": "E174C", "relative binding score [%]": -3.49}
{"Variant": "F157V", "relative binding score [%]": 5.28}
{"Variant": "D75P", "relative binding score [%]": -3.71}
{"Variant": "P50R", "relative binding score [%]": -1.29}
{"Variant": "S27E", "relative binding score [%]": -5.65}
{"Variant": "I12C", "relative binding score [%]": -3.91}
{"Variant": "T154L", "relative binding score [%]": 2.56}
{"Variant": "E14W", "relative binding score [%]": -1.16}
{"Variant": "Q51F", "relative binding score [%]": -6.25}
{"Variant": "Y53M", "relative binding score [%]": -1.67}
{"data": "Sample 2", "target": "CCNB1, cyclin fold, Cln2 fusion (human)", "technique": "yeast growth competition, sequencing", "sample": "yeast", "notes": "strong parent motif", "relative to": "not given", "direction": "higher = stronger binding", "starting sequence": "PKN2 docking peptide (human); DSTVTKLDFDLEP; partner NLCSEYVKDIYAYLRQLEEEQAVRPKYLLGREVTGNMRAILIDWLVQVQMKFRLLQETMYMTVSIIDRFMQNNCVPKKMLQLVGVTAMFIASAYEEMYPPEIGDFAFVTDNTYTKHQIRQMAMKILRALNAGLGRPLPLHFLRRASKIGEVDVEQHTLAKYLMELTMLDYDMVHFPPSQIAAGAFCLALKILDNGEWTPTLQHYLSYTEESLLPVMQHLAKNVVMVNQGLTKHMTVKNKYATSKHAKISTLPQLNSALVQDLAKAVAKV"}
{"Variant": "T3A", "normalised enrichment score": 3.7}
{"Variant": "P13A", "normalised enrichment score": 3.8}
{"Variant": "V4A", "normalised enrichment score": 1.22}
{"Variant": "S2A", "normalised enrichment score": 3.9}
{"Variant": "D10A", "normalised enrichment score": 1.55}
{"Variant": "L7A", "normalised enrichment score": 0.0209}
{"Variant": "E12A", "normalised enrichment score": 3.46}
{"data": "Sample 3", "target": "Ras GTPase-activating protein-binding protein 1, full length (G3BP1, Homo sapiens, UniProt Q13283)", "technique": "RNA Bind-n-Seq", "form": "RNA", "sample": "in vitro", "tested at": "200 nM", "notes": "whole 134-nt RNA, ends assumed", "together with": "150 mM LiCl", "relative to": "input library", "direction": "higher = stronger binding", "each molecule": "7-deaza-guanosine replaces G", "all sequences stand within": "GGGAGUUCUACAGUCCGACGAUC … UGGAAUUCUCGGGUGUCAAGG", "sequence of UniProt Q13283 (whole entry, looked up)": "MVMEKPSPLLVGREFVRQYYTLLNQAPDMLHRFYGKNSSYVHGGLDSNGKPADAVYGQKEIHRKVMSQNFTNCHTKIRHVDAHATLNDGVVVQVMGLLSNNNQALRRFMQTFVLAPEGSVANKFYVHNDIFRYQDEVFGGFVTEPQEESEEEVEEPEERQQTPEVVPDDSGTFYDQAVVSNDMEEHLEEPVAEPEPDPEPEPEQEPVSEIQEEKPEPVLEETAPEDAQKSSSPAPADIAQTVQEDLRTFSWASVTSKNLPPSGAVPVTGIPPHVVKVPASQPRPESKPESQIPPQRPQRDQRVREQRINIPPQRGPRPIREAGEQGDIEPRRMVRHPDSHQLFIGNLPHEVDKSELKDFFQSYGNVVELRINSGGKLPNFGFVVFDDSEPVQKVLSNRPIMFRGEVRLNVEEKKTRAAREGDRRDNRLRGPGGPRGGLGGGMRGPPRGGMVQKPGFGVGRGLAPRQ"}
{"Oligonucleotide": "CACAGACAACACGCACCCACCCAGACACAGAGGGAAGGGGUUGGGAUGGGGACAGGGUGCACAGCAGGGCGGGGUAGGACCCCAGCCCCU", "log2 enrichment": -0.745}
{"Oligonucleotide": "CACAGACAACACGCACCCACACAGACACAGAGGGAAGGGGUUGGGAUGGGGAUAGGGUGCACAGCAGGGCGGGGUAGGACCCCAGCCCCU", "log2 enrichment": -0.435}
{"Oligonucleotide": "UGGGAGGUGGAUUUUGUUUAUUUUUUUAGCUCAUUUCCAGGGGCGGGAAUUUUUUUUUAAUAUGUGUCAUGAAUAAAGUUGUUUUUGAAA", "log2 enrichment": -0.431}
{"Oligonucleotide": "CCUCAAGUCCUGUGCUACACAUCGUAUGUACCGAAUCGGGUGGGUGGGAGGGAAAGUAUUAUGUUACGCCGUUCGGAUCUGCACUUCCAG", "log2 enrichment": 0.489}
{"Oligonucleotide": "GCAGGAAGUAAAAACAAAUGGAAAUGCUUCGGAUAGUGGCAGGGGUGGGGGUUGCUAAGGAAAGGGUGGGAUGGGAGUGGGUAAAGAAAA", "log2 enrichment": -0.211}
{"Oligonucleotide": "AGUCCUGUGCUACACAUCGUAUGUACCGAAUCGGUUUGGUUUUUUUGGAAAAAAAGGAAAGUAUUAUGUUACGCCGUUCGGAUCUGCACU", "log2 enrichment": -1.81}
{"Oligonucleotide": "CAAGUCCUGUGCUACACAUCGUAUGUACCGAAUCGGGAAAAGGAAAAGGGAAAAGGAAAGUAUUAUGUUACGCCGUUCGGAUCUGCACUU", "log2 enrichment": -1.13}
{"Oligonucleotide": "CCCAUGCAGGUGGGCAUCUUUGGGAAGUGGGGCAAGGGGGGGAUAGGGAGGGGGGUAACACUUUGGGAACAGGUGGUCCCAGGUCGUUUC", "log2 enrichment": 0.626}
{"data": "Sample 4", "target": "Histone acetyltransferase KAT6A, winged helix 2, GST fusion (KAT6A, Homo sapiens, UniProt Q92794, residues 85-181)", "technique": "protein binding microarray", "form": "double-stranded DNA, one strand shown", "sample": "in vitro", "tested at": "not given", "notes": "8-mer, flanks averaged, mean of 2 arrays, mostly near background", "relative to": "not given", "direction": "higher = stronger binding", "Residues (chain)": "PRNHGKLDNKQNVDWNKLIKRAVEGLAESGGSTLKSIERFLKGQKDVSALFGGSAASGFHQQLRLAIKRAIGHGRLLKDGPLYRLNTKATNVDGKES"}
{"Oligonucleotide": "TCTCTGCA", "E-score": -0.0746}
{"Oligonucleotide": "GGACGTCC", "E-score": -0.126}
{"Oligonucleotide": "ATGAATTC", "E-score": 0.0855}
{"Oligonucleotide": "CACATACC", "E-score": 0.0506}
{"Oligonucleotide": "GCTACCCA", "E-score": -0.136}
{"Oligonucleotide": "CGCTTCCA", "E-score": 0.0586}
{"Oligonucleotide": "CTGAGAAG", "E-score": 0.0813}
{"Oligonucleotide": "AAGTAGCA", "E-score": 0.125}
{"Oligonucleotide": "ACAAAATA", "E-score": -0.00645}
{"Oligonucleotide": "CATAGTAC", "E-score": -0.104}
{"Oligonucleotide": "ACAGGTCA", "E-score": -0.161}
{"Oligonucleotide": "CATAGGCC", "E-score": 0.0168}
{"Oligonucleotide": "GCTAACCA", "E-score": -0.129}
{"Oligonucleotide": "CTAAGTTA", "E-score": 0.0337}
{"Oligonucleotide": "CGTCCGAG", "E-score": 0.0112}
{"Oligonucleotide": "CGCATAAG", "E-score": -0.0145}
{"Oligonucleotide": "AGTGATCG", "E-score": -0.126}
{"Oligonucleotide": "GGGCGACA", "E-score": -0.0816}
{"Oligonucleotide": "ATAGCCTG", "E-score": -0.0216}
{"Oligonucleotide": "AAGCCCAC", "E-score": 0.0503}
{"Oligonucleotide": "GATGATTA", "E-score": -0.0719}
{"note": "Excerpt of the above (sample 4):"}
{"Oligonucleotide": "GCTACCCA", "E-score": -0.136}
{"Oligonucleotide": "CGCTTCCA", "E-score": 0.0586}
{"Oligonucleotide": "CTAAGTTA", "E-score": 0.0337}
{"Oligonucleotide": "TCTCTGCA", "E-score": -0.0746}
{"Oligonucleotide": "ACAGGTCA", "E-score": -0.161}
{"Oligonucleotide": "AAGTAGCA", "E-score": 0.125}
{"Oligonucleotide": "GATGATTA", "E-score": -0.0719}
{"Oligonucleotide": "ATAGCCTG", "E-score": -0.0216}
{"Oligonucleotide": "AGTGATCG", "E-score": -0.126}
